Measurements collected from several papers.
A part holds a random share of what one study measured.
Sequence of UniProt Q9Y6M4 (whole entry, looked up): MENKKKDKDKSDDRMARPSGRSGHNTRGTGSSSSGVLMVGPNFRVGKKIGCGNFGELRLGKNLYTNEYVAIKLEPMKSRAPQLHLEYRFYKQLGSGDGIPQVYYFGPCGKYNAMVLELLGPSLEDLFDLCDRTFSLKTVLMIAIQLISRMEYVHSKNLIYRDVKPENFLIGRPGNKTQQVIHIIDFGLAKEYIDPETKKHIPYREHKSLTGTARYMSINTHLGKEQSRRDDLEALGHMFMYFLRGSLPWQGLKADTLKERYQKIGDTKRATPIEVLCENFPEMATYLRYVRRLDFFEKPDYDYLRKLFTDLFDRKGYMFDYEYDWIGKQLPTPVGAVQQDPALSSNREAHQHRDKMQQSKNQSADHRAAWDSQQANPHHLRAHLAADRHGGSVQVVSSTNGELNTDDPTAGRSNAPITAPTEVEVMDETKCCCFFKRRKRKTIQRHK
Sequence of UniProt Q9UKE5 (whole entry, looked up): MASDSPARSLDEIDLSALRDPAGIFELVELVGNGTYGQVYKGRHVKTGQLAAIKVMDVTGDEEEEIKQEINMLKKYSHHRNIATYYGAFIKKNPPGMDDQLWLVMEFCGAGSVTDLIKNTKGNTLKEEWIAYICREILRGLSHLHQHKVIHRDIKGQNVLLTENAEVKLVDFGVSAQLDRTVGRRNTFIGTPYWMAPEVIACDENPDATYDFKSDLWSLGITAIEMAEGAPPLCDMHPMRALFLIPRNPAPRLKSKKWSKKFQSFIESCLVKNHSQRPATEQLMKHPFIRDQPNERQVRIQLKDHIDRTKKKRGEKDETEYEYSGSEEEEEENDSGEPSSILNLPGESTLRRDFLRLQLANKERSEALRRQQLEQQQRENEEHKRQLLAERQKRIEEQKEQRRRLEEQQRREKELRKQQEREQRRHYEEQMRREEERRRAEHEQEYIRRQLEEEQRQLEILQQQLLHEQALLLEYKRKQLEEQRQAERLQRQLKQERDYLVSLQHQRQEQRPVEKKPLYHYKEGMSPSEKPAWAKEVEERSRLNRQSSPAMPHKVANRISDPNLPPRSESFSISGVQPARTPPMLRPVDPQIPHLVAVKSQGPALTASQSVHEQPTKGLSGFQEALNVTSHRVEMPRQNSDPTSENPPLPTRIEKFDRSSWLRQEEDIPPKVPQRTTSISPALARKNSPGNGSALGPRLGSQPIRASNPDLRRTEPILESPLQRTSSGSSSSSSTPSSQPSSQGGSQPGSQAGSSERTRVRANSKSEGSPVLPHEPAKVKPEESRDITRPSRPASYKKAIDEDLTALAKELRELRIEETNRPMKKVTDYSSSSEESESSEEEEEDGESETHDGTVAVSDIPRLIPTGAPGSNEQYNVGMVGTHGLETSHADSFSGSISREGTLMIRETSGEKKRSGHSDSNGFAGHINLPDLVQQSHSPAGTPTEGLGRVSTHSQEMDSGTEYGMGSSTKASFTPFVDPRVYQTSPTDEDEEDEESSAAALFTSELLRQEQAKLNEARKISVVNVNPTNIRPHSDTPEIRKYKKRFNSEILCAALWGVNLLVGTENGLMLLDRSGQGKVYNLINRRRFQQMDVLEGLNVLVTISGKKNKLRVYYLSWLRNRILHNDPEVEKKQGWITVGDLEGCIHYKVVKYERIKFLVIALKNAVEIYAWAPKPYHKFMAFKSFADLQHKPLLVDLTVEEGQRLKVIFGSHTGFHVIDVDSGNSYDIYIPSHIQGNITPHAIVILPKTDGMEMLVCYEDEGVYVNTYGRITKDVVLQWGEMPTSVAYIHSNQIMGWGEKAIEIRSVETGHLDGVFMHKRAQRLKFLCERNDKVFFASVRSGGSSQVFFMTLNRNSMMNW
Sequence of UniProt O75676 (whole entry, looked up): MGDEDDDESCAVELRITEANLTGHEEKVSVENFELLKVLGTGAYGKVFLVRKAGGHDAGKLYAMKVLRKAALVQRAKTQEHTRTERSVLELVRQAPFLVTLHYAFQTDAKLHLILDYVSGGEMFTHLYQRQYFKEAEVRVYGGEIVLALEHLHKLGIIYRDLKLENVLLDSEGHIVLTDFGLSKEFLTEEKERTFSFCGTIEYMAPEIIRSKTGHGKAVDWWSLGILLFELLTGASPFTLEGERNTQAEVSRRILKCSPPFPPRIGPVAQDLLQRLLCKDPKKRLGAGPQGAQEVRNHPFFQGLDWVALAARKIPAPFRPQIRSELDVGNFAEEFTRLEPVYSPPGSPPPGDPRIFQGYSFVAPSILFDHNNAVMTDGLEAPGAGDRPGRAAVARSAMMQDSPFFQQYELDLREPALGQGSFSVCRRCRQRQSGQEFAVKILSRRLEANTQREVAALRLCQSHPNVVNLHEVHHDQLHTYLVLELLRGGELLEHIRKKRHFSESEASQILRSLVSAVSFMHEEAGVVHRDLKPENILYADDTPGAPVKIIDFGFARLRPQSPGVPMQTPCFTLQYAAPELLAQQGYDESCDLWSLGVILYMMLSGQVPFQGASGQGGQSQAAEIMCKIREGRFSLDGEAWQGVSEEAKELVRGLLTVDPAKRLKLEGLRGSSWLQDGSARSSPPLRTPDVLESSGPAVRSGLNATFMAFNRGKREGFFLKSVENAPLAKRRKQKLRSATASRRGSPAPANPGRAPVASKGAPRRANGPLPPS
Sequence of UniProt P49137 (whole entry, looked up): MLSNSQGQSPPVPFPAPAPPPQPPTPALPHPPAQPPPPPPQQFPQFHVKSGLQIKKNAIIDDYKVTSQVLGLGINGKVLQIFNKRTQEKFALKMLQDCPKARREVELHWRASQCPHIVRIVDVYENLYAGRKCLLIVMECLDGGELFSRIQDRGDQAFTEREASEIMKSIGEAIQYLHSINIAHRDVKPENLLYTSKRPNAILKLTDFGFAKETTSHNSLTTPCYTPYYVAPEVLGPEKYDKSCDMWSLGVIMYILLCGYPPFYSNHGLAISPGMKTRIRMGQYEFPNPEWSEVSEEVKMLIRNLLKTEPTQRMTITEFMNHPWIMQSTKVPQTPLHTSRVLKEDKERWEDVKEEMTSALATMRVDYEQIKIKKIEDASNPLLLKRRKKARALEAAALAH
Sequence of UniProt P51812 (whole entry, looked up): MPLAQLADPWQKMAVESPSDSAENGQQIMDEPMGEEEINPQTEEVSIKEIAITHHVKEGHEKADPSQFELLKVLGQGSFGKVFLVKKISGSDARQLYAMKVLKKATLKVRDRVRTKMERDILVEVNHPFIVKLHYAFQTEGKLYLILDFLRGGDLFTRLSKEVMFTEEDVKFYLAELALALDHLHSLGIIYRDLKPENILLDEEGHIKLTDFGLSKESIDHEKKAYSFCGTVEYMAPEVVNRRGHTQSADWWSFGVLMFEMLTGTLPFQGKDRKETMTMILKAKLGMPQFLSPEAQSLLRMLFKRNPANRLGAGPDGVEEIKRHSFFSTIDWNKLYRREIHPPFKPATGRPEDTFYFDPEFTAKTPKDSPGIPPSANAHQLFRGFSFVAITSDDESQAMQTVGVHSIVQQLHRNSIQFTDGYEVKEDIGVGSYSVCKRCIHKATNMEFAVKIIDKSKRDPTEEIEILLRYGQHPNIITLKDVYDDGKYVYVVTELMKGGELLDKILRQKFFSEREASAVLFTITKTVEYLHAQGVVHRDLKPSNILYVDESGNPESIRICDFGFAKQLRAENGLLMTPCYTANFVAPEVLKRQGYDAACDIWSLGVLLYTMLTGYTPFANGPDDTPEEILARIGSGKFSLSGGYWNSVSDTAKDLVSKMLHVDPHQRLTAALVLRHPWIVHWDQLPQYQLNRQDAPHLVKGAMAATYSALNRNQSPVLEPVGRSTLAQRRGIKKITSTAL
Sequence of UniProt P30291 (whole entry, looked up): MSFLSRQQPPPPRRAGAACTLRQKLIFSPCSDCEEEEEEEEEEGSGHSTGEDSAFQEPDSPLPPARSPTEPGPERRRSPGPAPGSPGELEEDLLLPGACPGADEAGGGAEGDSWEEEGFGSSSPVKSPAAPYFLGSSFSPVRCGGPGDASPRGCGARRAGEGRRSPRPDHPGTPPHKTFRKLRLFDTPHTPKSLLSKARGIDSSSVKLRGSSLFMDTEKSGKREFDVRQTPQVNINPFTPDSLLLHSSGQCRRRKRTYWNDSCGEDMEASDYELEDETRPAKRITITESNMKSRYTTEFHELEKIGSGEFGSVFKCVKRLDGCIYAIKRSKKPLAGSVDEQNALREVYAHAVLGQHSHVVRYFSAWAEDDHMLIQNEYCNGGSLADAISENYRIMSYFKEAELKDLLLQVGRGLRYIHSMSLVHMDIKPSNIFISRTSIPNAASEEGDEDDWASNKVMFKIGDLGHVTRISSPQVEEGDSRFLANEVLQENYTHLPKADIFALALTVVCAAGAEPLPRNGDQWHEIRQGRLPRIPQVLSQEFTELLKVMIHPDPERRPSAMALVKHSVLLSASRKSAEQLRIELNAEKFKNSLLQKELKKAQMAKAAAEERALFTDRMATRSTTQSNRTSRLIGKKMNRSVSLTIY
Sequence of UniProt P49841 (whole entry, looked up): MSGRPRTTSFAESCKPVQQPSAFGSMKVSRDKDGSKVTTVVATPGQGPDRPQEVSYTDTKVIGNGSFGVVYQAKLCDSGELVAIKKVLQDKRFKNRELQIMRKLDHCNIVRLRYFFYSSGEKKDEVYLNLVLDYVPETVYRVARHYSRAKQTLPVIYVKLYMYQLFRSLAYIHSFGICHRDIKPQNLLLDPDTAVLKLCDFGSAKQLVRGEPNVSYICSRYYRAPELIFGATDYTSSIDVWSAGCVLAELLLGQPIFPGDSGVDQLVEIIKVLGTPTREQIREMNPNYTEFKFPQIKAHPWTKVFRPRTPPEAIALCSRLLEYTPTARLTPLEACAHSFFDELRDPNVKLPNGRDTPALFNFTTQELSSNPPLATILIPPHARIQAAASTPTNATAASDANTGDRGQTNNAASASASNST

Series 1 — read-out: cell-free assay; technique: competition with immobilised ligand; tested at: 1 µM
Structure (SMILES): O=C(NS(=O)(=O)c1ccc(NCC2CCOCC2)c([N+](=O)[O-])c1)c1ccc(N2CCN(Cc3ccc(C(F)(F)F)cc3-c3ccc(Cl)cc3)CC2)cc1Oc1cnc2[nH]ccc2c1
target	remaining binding
RAF1 (Homo sapiens, UniProt P04049)	100%
EGFR (Homo sapiens, UniProt P00533, G719S)	76%
TNIK (Homo sapiens, UniProt Q9UKE5)	100%
BMX (Homo sapiens, UniProt P51813)	100%
FGFR2 (Homo sapiens, UniProt P21802)	100%
RIPK1 (Homo sapiens, UniProt Q13546)	99%
CLK1 (Homo sapiens, UniProt P49759)	69%
Ribosomal protein S6 kinase alpha-3, N-terminal kinase domain (RPS6KA3, Homo sapiens, UniProt P51812)	100%
LATS2 (Homo sapiens, UniProt Q9NRM7)	100%
Ribosomal protein S6 kinase alpha-4, C-terminal kinase domain (RPS6KA4, Homo sapiens, UniProt O75676)	89%
MYLK (Homo sapiens, UniProt Q15746)	65%

Series 2 — Structure (SMILES): COc1cccc(-c2cc(=O)c3ccccc3o2)c1N; read-out: enzyme activity; action: inhibitor; tested at: 0.5 µM; baseline: control
target	remaining activity [%]
NEK1 (Homo sapiens, UniProt Q96PY6)	81.2
RPS6KA2 (Homo sapiens, UniProt Q15349)	96.4
TAOK2 (Homo sapiens, UniProt Q9UL54)	96
MAP2K2 (Homo sapiens, UniProt P36507)	69.2
WEE1 (Homo sapiens, UniProt P30291)	83
GSK3B (Homo sapiens, UniProt P49841)	95.7
ACVR1B (Homo sapiens, UniProt P36896)	92.5
MERTK (Homo sapiens, UniProt Q12866)	98
TBK1 (Homo sapiens, UniProt Q9UHD2)	94.3
MST1R (Homo sapiens, UniProt Q04912)	93.4
MAPKAPK2 (Homo sapiens, UniProt P49137)	102
CSNK1G3 (Homo sapiens, UniProt Q9Y6M4)	97.7
NEK6 (Homo sapiens, UniProt Q9HC98)	102
JAK3 (Homo sapiens, UniProt P52333)	96.9

Series 3 — technique: RNA Bind-n-Seq; form: RNA; medium: in vitro; tested at: 200 nM; notes: whole 134-nt RNA, ends assumed; added: 150 mM LiCl; baseline: input library; direction: higher = stronger binding; library: 7-deaza-guanosine replaces G
Target: Fragile X messenger ribonucleoprotein 1, C-terminal low-complexity region (Fmr1, Mus musculus, UniProt P35922)
All sequences stand within: GGGAGUUCUACAGUCCGACGAUC … UGGAAUUCUCGGGUGUCAAGG
Sequence	log2 enrichment
UCCUGUGCUACACAUCGUAUGUACCGAAUCGGGUUUUUGGGGUUUUUGGGUUUUUGGGGAAAGUAUUAUGUUACGCCGUUCGGAUCUGCA	-0.966
CUGUGCUACACAUCGUAUGUACCGAAUCGGGGUUUUUUUGGGUUUUUUUGGGUUUUUUUGGAAAGUAUUAUGUUACGCCGUUCGGAUCUG	0.894
CACAGACAACACGCACCCACACAGACACAGAGGGAAGGGGUUGGGAUGGGGACAUGGUGCACAGCAGGGCGGGGUAGGACCCCAGCCCCU	-0.487
CUGUGCUACACAUCGUAUGUACCGAAUCGGGGUUUGGGGUUUUUUUGGGGUUUUUUUGGGGAAAGUAUUAUGUUACGCCGUUCGGAUCUG	1.76
CACAGACAACACGCACCCACACAGACACAGAGGGAAGGGGUUGGGAUGGGGACAGGGUGCACAGCAGGGCGGGGUAGGUCCCCAGCCCCU	1.87
UCAUGGCUAUCAUUAGCCACAGGUACUGCUGAUUAUAAGGCCAGUAAAAUUUUAGUACCUGGAGGUUUGACUCUAAUUUUUGCACUGAUG	-3.36
UAACUUUAGAGGAGGAUCUGAUGGAUAUGGCAGUGGACGUGGAUUUGGGGAUGGCUAUAAUGGGUAUGGAGAAGGACCUGGAGGUGGCAA	0.392
UAACUUUAGAGGAGGAUCUGAUGGAUAUGGCAGUGGACGUGGAUUUGGCGAUGGCUAUAAUGGGUAUGGAGGAGGACCUGGAGGUGGCAA	0.21

Series 4 — technique: protein-binding microarray; form: double-stranded DNA, one strand shown; medium: in vitro; tested at: not given; direction: higher = stronger binding
Target: Protein C-ets-1 (ETS1, Homo sapiens, UniProt P14921, residues 1-441, K379A, full length assumed)
Notes: k-mer, scored over probes, only values ≥0.25
Construct (chain): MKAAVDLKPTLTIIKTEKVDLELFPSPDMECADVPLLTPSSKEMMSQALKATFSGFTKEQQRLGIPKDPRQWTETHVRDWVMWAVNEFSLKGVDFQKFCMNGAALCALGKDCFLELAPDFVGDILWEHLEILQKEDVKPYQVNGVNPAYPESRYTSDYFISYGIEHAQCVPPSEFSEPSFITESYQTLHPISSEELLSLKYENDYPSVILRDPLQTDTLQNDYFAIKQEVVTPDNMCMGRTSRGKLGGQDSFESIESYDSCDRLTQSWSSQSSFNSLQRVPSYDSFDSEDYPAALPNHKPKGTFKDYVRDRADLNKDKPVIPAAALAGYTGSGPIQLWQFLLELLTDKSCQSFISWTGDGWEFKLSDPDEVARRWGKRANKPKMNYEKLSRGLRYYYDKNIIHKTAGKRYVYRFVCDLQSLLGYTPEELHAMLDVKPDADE
Sequence	E-score
CACACACC	0.274
GTCCGGTA	0.368
GTTTTCAA	0.25
ATTCAAAT	0.254
GGCGGTAA	0.3
CGGTTGTC	0.267
ATTATACC	0.302
CGGTAATA	0.28

For quick reference, copied from above (series 2):
target	remaining activity [%]
MST1R (Homo sapiens, UniProt Q04912)	93.4
CSNK1G3 (Homo sapiens, UniProt Q9Y6M4)	97.7
GSK3B (Homo sapiens, UniProt P49841)	95.7
